Measured values from different studies.
Parts stem from different laboratories: compare values within a part only.

Study 1 — method: RNA Bind-n-Seq; molecule type: RNA; medium: in vitro; tested at: not given; baseline: input RNA pool; reading: higher = stronger binding
Target: RING finger protein unkempt homolog, zinc fingers 1-6, GST-SBP tag (UNK, Homo sapiens, UniProt Q9C0B0, residues 30-357)
UniProt Q9C0B0, sequence (30-357, looked up): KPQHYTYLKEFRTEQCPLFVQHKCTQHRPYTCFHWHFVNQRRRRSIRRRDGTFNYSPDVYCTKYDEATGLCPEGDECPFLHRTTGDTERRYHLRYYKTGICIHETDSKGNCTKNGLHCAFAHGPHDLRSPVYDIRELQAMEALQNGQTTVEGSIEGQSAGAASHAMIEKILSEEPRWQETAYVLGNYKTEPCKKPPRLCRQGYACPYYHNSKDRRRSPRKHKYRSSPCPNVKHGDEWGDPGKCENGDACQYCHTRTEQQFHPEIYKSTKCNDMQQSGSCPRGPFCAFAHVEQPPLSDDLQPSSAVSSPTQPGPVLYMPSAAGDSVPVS
Setting: RNA with constant flanks, human and mouse sites, ends assumed
| Oligonucleotide | bound/input enrichment [ratio] |
| --- | --- |
| GGGAGUUCUACAGUCCGACGAUCUAUAUCCAGAGCUUCCGAGACCGGCAGACCGGGAGCUCCCUGAGCUCCUUCAUGGCCUCACCCACAGAUGCGGACUAUGAGUAUGGGUCCCGGGGACCUCUGACAGCCUGCUCAGGCCCCCAACAGAGGAUUGAGCAUCA | 0.189 |
| GGGAGUUCUACAGUCCGACGAUCGCACUUCUCAAAUACUGGCCAAAGACUCACAGUCCAAAAGAAGUAAUGUUCUUAAACGAAUUAGAAGAGAUUUUAGAUGUCAUUGAACCAUCAGAAUUUGUGAAGAUCAUGGAACCCCUCCAACAGAGGAUUGAGCAUCA | 0.677 |
| GGGAGUUCUACAGUCCGACGAUCGCUGCAUACAUAGAAAAUGCCAAACAGGUUGGCCGCCUUGAGAAUGCAAUCGGUUGGUAUCAUAGCCACCCUGGUUAUGGCUGCUGGCUCUCCGGGAUUGAUGUUAGUACACAGAUGCUGCAACAGAGGAUUGAGCAUCA | 0.922 |
| GGGAGUUCUACAGUCCGACGAUCAAUAGUGGAGAAGAAUUAGAAUCCUACAAGGGACACUUUGGUCCUAUUCACUGUGUGAGAUUUAGUCCUGAUGGAGAACUCUAUGCCAGUGGUUCAGAAGAUGGAACAUUGAGACUAUGGCAACAGAGGAUUGAGCAUCA | 1.11 |

Study 2 — method: universal PBM; molecule type: double-stranded DNA, one strand shown; medium: in vitro; tested at: 600 nM; reading: higher = stronger binding
Target: Sal-like protein 4, full length isoform A (SALL4, Homo sapiens, UniProt Q9UJQ4, residues 1-1053)
UniProt Q9UJQ4, sequence (whole entry, looked up): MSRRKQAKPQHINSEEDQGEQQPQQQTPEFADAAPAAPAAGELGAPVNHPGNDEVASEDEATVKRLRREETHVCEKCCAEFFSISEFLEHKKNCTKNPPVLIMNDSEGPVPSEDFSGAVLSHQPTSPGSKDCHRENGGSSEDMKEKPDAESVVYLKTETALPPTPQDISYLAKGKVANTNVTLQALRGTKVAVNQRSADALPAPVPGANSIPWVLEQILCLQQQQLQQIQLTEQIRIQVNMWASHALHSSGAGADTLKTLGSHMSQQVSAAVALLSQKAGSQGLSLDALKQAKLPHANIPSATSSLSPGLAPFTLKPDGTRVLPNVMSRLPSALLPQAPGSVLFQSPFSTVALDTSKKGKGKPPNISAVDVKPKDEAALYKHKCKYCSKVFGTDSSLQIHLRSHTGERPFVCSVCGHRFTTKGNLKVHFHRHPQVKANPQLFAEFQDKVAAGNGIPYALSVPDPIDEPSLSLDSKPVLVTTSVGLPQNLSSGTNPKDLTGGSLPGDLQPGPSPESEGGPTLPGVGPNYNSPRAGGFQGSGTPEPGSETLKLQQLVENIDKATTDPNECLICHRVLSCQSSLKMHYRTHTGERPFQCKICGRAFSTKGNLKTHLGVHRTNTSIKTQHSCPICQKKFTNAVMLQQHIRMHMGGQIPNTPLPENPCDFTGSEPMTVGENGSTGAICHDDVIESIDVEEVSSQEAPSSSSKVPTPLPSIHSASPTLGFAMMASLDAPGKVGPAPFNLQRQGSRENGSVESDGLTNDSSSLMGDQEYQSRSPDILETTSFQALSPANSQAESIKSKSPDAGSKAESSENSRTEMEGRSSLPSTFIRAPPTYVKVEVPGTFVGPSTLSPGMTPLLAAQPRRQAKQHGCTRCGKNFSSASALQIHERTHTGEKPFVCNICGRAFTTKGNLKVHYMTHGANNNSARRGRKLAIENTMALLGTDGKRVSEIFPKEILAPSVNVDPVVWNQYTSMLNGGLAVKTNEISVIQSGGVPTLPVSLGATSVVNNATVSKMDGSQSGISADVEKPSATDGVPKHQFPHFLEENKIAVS
Setting: 8-mer, flanks averaged, mean of replicates
| Oligonucleotide | E-score |
| --- | --- |
| ACGCAATA | 0.241 |
| TCCTAGGA | -0.182 |
| AATTACTC | 0.305 |
| ACGCATAT | 0.179 |
| CCACGAAG | -0.108 |
| CGAGAAAA | 0.0733 |
| CCCGCCGG | -0.396 |
| GCTAGAGA | 0.0132 |
| CAGACCGA | -0.183 |
| CTGTGCTA | -0.0346 |
| CGCCTTTA | 0.0132 |
| ATTTGGGG | 0.0216 |
| GGTACGAA | 0.0474 |
| CGGAGGAG | -0.221 |
| CTACCCGA | -0.112 |
| CACCTTAG | -0.114 |
| ATGGCACG | -0.11 |
| GTAGAGTA | 0.125 |
| CCATACTC | -0.0852 |
| AATCGCTA | 0.0726 |
| ATGACAGA | 0.17 |
| CCGCTTCA | -0.205 |

Study 3 — method: RNA Bind-n-Seq; molecule type: RNA; medium: in vitro; tested at: 365 nM; baseline: no-protein control; reading: higher = stronger binding
Target: RNA binding protein fox-1 homolog 2, RRM domain, GST-SBP tag (RBFOX2, Homo sapiens, UniProt O43251-10, residues 100-194)
Setting: natural RNA segment, single round, ends assumed
Shared flanks, not repeated: GGGAGUUCUACAGUCCGACGAUC … UGGAAUUCUCGGGUGCCAA
Residues (chain): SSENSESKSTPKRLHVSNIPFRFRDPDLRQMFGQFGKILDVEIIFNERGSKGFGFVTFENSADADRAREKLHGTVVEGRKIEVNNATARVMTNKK
| Oligonucleotide | RBNS enrichment (R) |
| --- | --- |
| AAGCCUUGUGGCUGUGCUGUCAUGCCUAGGAUAGCAUUCAACAUAACUUUAACAAAAUUAAACAUUCAAAAAGGCUUAGACUACUCCCAAUCAUUAAAGUAGGACCACAC | 0.68 |
| CUUGCGAGCCCUGGCCAGGGGAGGAAGUGAGGCCCAGGCACCUGCUGCCCCUCGAGGGGGCCCUGCCUGCCGCGGGGCCUCCCCACAAGCCCCUCCCAAAGCGCCGGCCG | 0.322 |
| GCUCAGCCUGUCCCCCACUCCUGCCUGCUUCCCGGUGAGCUGCCCCCCACACGUGCAGCCCGGGCUGCCUCCAGGGUCUGGCUGAGUGGGAUCAGGUGGCCCUCCAACUC | 0.326 |
| UUUGCAAUUGCUUUUGAUUUUUAGUCCUUUGGAACAAAUGUGUGAUGUUAUGUCUGAUGUUGUGUUUUUAGAGCUGUGAAAAGUCUGAAAAAUUUCAAGGGGUAUUAUUU | 0.499 |
| AACCGUUUCCUUCUUGUCACUGAAAUAUAUGGACCUUAAUUUGUAUCCUGACUGACUCAACCCAGCAGAGCAUAAAUUGACUUGAGAGCCUUACCUUUGAUGUCUGAAAU | 0.249 |
| CCUGCCUAUGAGUCCAUCAUCAAGGCAUUCCCAGAUUCCUGGUAGGGUGGCUUUUGGUUUUUGUUUCUUUCUUGUCUUGUCUUUUAUUGAAAGGAAAUCAAAAAUAGGCU | 2.35 |
| CCUCAAAUCACCAACAGCUUGUUACUACAACAAAUUGUUUUGAUUUUAGUGCCUGUUGAGGACUUGAUUUCUUCUUGAUUUUUCUCUUAAUCUGGUUCAUUUGAAAUUUC | 0.506 |
| AGUGAAGACCUUAUUAAUAGGAGCAUAAUUGCGAGGGAGAAUCAUGGUUCUGCAGUCUGGUGUAGACACUGGAAUAACAGCACAGAAAAAUCUAUGACUCCCAAUAUCUU | 0.283 |

Study 4 — method: protein binding microarray; molecule type: double-stranded DNA, one strand shown; medium: in vitro; tested at: not given; baseline: not given; reading: higher = stronger binding
Target: Histone acetyltransferase KAT6A, winged helix 1, GST fusion (KAT6A, Homo sapiens, UniProt Q92794, residues 1-85)
Setting: 8-mer, flanks averaged, mean of 2 arrays, mostly near background
Residues (chain): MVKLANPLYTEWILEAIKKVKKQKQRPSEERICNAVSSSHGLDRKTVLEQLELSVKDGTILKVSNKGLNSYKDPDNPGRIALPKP
| Oligonucleotide | E-score |
| --- | --- |
| GCAGATGA | -0.0906 |
| TCCTCGCA | -0.00158 |
| CATAAGGG | -0.0314 |
| CTCTCCAC | -0.27 |
| CATGACTC | -0.204 |
| TAGACCTA | -0.0265 |
| CCCGTGCG | 0.382 |
| AATGCAGA | -0.166 |
| AGAGAAAG | -0.28 |
| GGGGGTGA | -0.0334 |
| AATGAACG | -0.0833 |
| AAGGCTTG | -0.204 |
| CACCGCGG | 0.381 |
| AATGGAAG | 0.00938 |

For quick reference, copied from above (study 4):
| Oligonucleotide | E-score |
| --- | --- |
| CATAAGGG | -0.0314 |
| CTCTCCAC | -0.27 |
| CATGACTC | -0.204 |
| TAGACCTA | -0.0265 |
